Published values gathered from unrelated publications.
Protocols differ between the studies behind these lines. Several values in a cell are separate wells, animals, samples, runs or records. ± marks the error that the study gave. Ends that are not written are not given here.
B1: disulfide; chain ATCYCRTGRCATRESLSGVCEISGRLYRLCCR (disulfide (positions not given here))
UniProt O43614, sequence (whole entry, unmodified, looked up): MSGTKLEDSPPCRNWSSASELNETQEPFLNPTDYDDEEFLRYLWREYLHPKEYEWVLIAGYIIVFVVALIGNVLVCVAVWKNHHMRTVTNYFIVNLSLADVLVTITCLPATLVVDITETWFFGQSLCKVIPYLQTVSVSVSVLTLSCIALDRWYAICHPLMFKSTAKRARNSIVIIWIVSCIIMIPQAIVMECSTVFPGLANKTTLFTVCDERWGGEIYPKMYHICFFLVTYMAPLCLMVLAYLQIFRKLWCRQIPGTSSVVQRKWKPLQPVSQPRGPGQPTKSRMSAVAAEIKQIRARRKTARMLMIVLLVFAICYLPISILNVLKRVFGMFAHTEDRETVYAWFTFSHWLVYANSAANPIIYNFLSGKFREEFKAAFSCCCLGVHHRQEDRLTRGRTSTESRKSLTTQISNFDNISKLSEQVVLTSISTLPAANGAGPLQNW

vancomycin  IC50 (Saccharomyces cerevisiae; yeast growth): > 40000 nM
baccatin  inhibition (Bovine alphaherpesvirus 1; viral replication, primary screen; 5 µM, 12 h pre-incubation): > 90%
capreomycin sulfate  efflux with mucin (dialysis; porcine stomach mucin; 4 h, 37 °C, drug alone; baseline: without mucin): 44%
Polymyxin B  MIC (Acinetobacter baumannii; broth microdilution, MH medium; KCCM 40203; 16 h, 37 °C, growth inhibition over 99%): 2 µM
Ro 31-8220  viral titre (infectious bursal disease virus; concentration not given): decreased
colistin  radial growth ratio (Aspergillus fumigatus; solid minimal medium; 80 µM, 4 d; baseline: untreated control): 0.898 and 0.899 and 0.847
KKRRRGLSRFRMGRGY  bacterial killing (Vibrio harveyi; bacterial survival, plate count; peptide; 20 µM, 4 h, room temperature; baseline: untreated control): 91.3%
caspofungin  MEC (Aspergillus fumigatus; A1163): 0.25 µg/mL
insulin human  mRNA fold change (measured: NDN; mouse, uninfected, brain; ip, dose not given, with: insulin; baseline: PBS-treated): 0.825
KLKGLLGGKKKLK  inhibition (Candida albicans; growth; peptide, ATCC 10231, potato dextrose broth; 128 µM, 30 °C): 0 fraction (0-1)
HNP1 R15A  biofilm formation (Acinetobacter baumannii; crystal violet staining; 19606; concentration not given): 345% and 362% and 419%
VRRRRVSRFGRGRGY  bacterial killing (Pseudomonas fluorescens; bacterial survival, plate count; peptide; 20 µM, 4 h, room temperature; baseline: untreated control): 57%
orexin-B  maximal ΔF/F0 (HCRTR2 (Homo sapiens, UniProt O43614, del254-292/I293E/K294R/L160H/M161K/Q254E); sensor fluorescence, fluorescence imaging; HEK293T; 10 µM, with: OXB 10 µM; baseline: baseline): 833% and 750% and 832% and 887% and 787% and 849%
thiostrepton  MIC (Enterococcus faecalis; vancomycin-resistant): 0.06 µg/mL
amyloid β-peptide (1–28)  remaining substrate (substrate, LC-MS; phosphate buffer; 10 µM, 4 h, pH 7.4, 25 °C, with: imprinted nanoparticle 1 equiv): 61.1 ± 4.4%
CBR-5884  maximum inhibition (human coronavirus OC43; virus-induced cell death; MRC-5): 11.2%
DPDPE  retention time (RP-HPLC; HALO RP-amide column; 25 µM, formic acid/acetonitrile, 25 min gradient): 7.07 min
aspterric acid  inhibition (Arabidopsis thaliana; hypocotyl length; Col-0, seedlings; 50 µg/mL, with BCAA): 21.1%
KRRRGGRLSGFRTAVGY  bacterial killing (Micrococcus luteus; bacterial survival, plate count; peptide; 20 µM, 4 h, room temperature; baseline: untreated control): 48.1%
heparin sodium  subjects with abnormal liver function (healthy Chinese adult volunteers; continuous intravenous infusion, 8 IU/kg/h, 5 days): 75%
HVLVMSATRR  serum sodium (peptide, C57BL/6J mice; Alzet osmotic pump, 3 mg/kg, 8 weeks): 148 mmol/L and 150 mmol/L
ILPWDWPWWPWRR  growth rate (Escherichia coli; peptide, K-12 MG1655, Mueller-Hinton broth; concentration not given, 37 °C, unit not given; baseline: no peptide): 0.00101
glucagon  splanchnic extraction (isotope dilution; human, type 1 diabetes; intravenous infusion, 0.05 ng/kg/min, 100 to 120 min): 26.6 ± 5%
Polymyxin B  ROS level (Klebsiella pneumoniae; DCFH-DA fluorescence; ATCC 700603; 2 × MIC; higher = more ROS): 328 a.u.
Polymyxin B  MIC (Klebsiella pneumoniae; broth microdilution; OmpK36-truncated, KPC-2): 16 µg/mL
CLCGGKGKKLGKG  inhibition (Candida albicans; growth; peptide, ATCC 10231, potato dextrose broth; 128 µM, 30 °C): 0 fraction (0-1)
Polymyxin B  MIC (Pseudomonas aeruginosa; broth microdilution; P1 clinical isolate; 20 h): 2 µg/mL
LLGKKLLKGAKGG  inhibition (Candida albicans; growth; peptide, ATCC 10231, potato dextrose broth; 128 µM, 30 °C): 0 fraction (0-1)
ILPWRWPWWPWRR  growth rate (Escherichia coli; peptide, K-12 MG1655, Mueller-Hinton broth; concentration not given, 37 °C, unit not given; baseline: no peptide): 0.595
pertussis toxin  p-PKA level (immunostaining; humanized mouse, SAH model, meninges; dose not given): 99.3 MFI
RWRYRRRGYLAMG  bacterial killing (Micrococcus luteus; bacterial survival, plate count; peptide; 20 µM, 4 h, room temperature; baseline: untreated control): 64%
Polymyxin B  bacterial load (Pseudomonas aeruginosa; NCTC 13921, neutropenic CD-1 mouse, thigh infection, thigh; 25 mg/kg every 6 h, 26 h post-infection): 2.36 log10 CFU/g
RNA 1 AACAAAACAAAAUAGCACCGUAAAGC / RNA 2 GCUUUACGGUGCUA (dsRNA; 14 bp duplex, 5' 12 nt overhang)  Kd (rhlE 1-384 (Pseudomonas aeruginosa, UniProt Q9I689); fluorescence polarization; double-stranded RNA; with: AMP-PNP 1 mM): 5.9 nM
hexaarginine  Kd (PorA peptide pore; peptide binding, planar bilayer single-channel recording; pH 7.4, +25 mV, trans side, 150 mM KCl): 28400 ± 3000 nM
Teicoplanin A2-2  MIC (Enterococcus faecium; VanA vancomycin-resistant): > 32 µg/mL
ILSAAWSGIKSLG  relative growth rate (Escherichia coli; bacterial growth, OD600 growth curve; peptide, K12 MG1655, MHB broth; 40 µM, 24 h, 37 °C; baseline: no peptide control): 0.747
nonaarginine  Kd (PorA peptide pore; peptide binding, planar bilayer single-channel recording; pH 7.4, +10 mV, trans side, 150 mM KCl): 1020 ± 100 nM
RQYKNRGLRGQQAGHLI  bacterial killing (Streptococcus iniae; bacterial survival, plate count; peptide; 20 µM, 4 h, room temperature; baseline: untreated control): 29.5%
Tunicamycin  maximum inhibition (human coronavirus OC43; virus-induced cell death; MRC-5): 11.1%
ILSAAWSGIISLI  relative growth rate (Escherichia coli; bacterial growth, OD600 growth curve; peptide, K12 MG1655, MHB broth; 40 µM, 24 h, 37 °C; baseline: no peptide control): 0.456
B1  biofilm formation (Acinetobacter baumannii; crystal violet staining; 19606; concentration not given): 102% and 113% and 153% and 128%
ILPWWWPWWPWRR  growth rate (Escherichia coli; peptide, K-12 MG1655, Mueller-Hinton broth; concentration not given, 37 °C, unit not given; baseline: no peptide): 0.426
colistin  MIC (Pseudomonas aeruginosa; 1191191, multidrug-resistant): 0.5 µg/mL
TRRRKRLSGFGTAVGY  bacterial killing (Streptococcus iniae; bacterial survival, plate count; peptide; 20 µM, 4 h, room temperature; baseline: untreated control): 62.2%
aprotinin  metabolic activity (Aspergillus fumigatus; Alamar blue; 20 µM): 100%
RRNQKRKRGYNSV  bacterial killing (Streptococcus iniae; bacterial survival, plate count; peptide; 20 µM, 4 h, room temperature; baseline: untreated control): 56.5%
ILPWCWPWWPWRR  growth rate (Escherichia coli; peptide, K-12 MG1655, Mueller-Hinton broth; concentration not given, 37 °C, unit not given; baseline: no peptide): 0.00124

Repeated from above:
VRRRRVSRFGRGRGY  bacterial killing (Pseudomonas fluorescens; bacterial survival, plate count; peptide; 20 µM, 4 h, room temperature; baseline: untreated control): 57%
orexin-B  maximal ΔF/F0 (HCRTR2 (Homo sapiens, UniProt O43614, del254-292/I293E/K294R/L160H/M161K/Q254E); sensor fluorescence, fluorescence imaging; HEK293T; 10 µM, with: OXB 10 µM; baseline: baseline): 833% and 750% and 832% and 887% and 787% and 849%
thiostrepton  MIC (Enterococcus faecalis; vancomycin-resistant): 0.06 µg/mL
